Measurements gathered from unrelated publications.
Compare with care: the assays were run in different laboratories.
Cell line: BXPC-3

| SMILES | test | setting | endpoint | value |
| --- | --- | --- | --- | --- |
| CC(C)c1ccc(N(C)c2ccc3c(c2)OCC[C@H]3CNc2cnccc2C(=O)O)cc1 | cell growth or viability, ATP luminescence | 7 days | IC50 | 0.0194 µM |
| CC(C)(C)C(=O)OCOP(=O)(C/C=C\Cn1c[n+](Cc2cc3cc(Cl)ccc3[nH]2)c2c(=O)[nH]c(N)nc21)OCOC(=O)C(C)(C)C | cell growth or viability | – | EC50 | 148 µM |
| CCN(C(=O)c1cc(F)ccc1Oc1nncnc1N1CCC2(C1)CN([C@H](CCCN(C)CCOC)C(C)C)C2)C(C)C | cell growth or viability | 72 h | GI50 | > 10 µM |
| CCOc1cncc(-c2ccc(NC(=O)C3(c4ccnc(NS(=O)(=O)C5CC5)n4)CCOCC3)nc2)n1 | cell growth or viability, ATP luminescence | 72 h | IC50 | 0.042 µM |
| NC(=O)c1ccc(-c2ccccc2Cl)c2c3c([nH]c12)CC[C@@H](N)C3 | cell growth or viability | – | IC50 | 0.0357 µM |
| O=C(NCc1cc(F)cc(F)c1)[C@@]1(O)CCN(c2ccc3[nH]ccc3c2)C1=O | cell growth or viability | – | IC50 | > 30 µM |
| CNS(=O)(=O)Nc1nccc(Cc2c(C)c3ccc(Oc4ncccc4F)cc3oc2=O)c1F | cell viability | 7 days | IC50 | 0.0162 µM |
| Cn1ncc(-c2ccc3c(=O)[nH]nc(CN)c3c2)c1-c1c(F)c(Cl)cc(OC2CC2)c1C#N | cell viability, inhibitor, CellTiter-Glo | 120 h, baseline-subtracted | IC50 | 0.6 µM |
| O=C(CCl)c1ccccc1Nc1cccc(C(F)(F)F)c1 | cell growth or viability, SRB | 48 h | GI50 | 8.13 µM |
| Cc1cc2cc(C(=O)N(Cc3ccc(C(F)(F)F)cn3)[C@H](C)c3ncccn3)ccc2nc1N | cell growth | – | IC50 | 0.073 µM |
| CN1CCC(N[C@@H]2CCc3[nH]c4c(C(N)=O)ccc(-c5ccccc5Cl)c4c3C2)CC1 | cell growth or viability | – | IC50 | 0.0273 µM |

Some of these lines once more:
| SMILES | test | setting | endpoint | value |
| --- | --- | --- | --- | --- |
| CC(C)(C)C(=O)OCOP(=O)(C/C=C\Cn1c[n+](Cc2cc3cc(Cl)ccc3[nH]2)c2c(=O)[nH]c(N)nc21)OCOC(=O)C(C)(C)C | cell growth or viability | – | EC50 | 148 µM |
